Results gathered from unrelated publications.
Lines come from different studies, so protocols differ. ± marks the error that the study gave. Values after ≈ are worked out from the molar mass of the structure shown.

Structure (SMILES)	assay	test system	conditions	how to read	measurement	value
CC1(C)C(=O)N(c2ccc(C#N)c(C(F)(F)F)c2)C(=S)N1c1ccc(C(N)=O)c(F)c1		human, male, plasma	oral, 160 mg, single dose, after high-fat meal		Tmax (median)	240 h
CC(C)C[C@H](NC(=O)[C@H](CCCCN)NC(=O)[C@H](CCC(=O)O)NC(=O)[C@H](C)NC(=O)[C@@H](NC(=O)[C@H](CCCCN)NC(=O)[C@H](CC(=O)O)NC(=O)[C@H](Cc1ccc(O)cc1)NC(=O)[C@H](Cc1ccccc1)NC(=O)[C@H](C)NC(=O)[C@H](CCCCN)NC(=O)[C@H](CC(C)C)NC(=O)[C@H](Cc1c[nH]c2ccccc12)NC(=O)[C@@H](N)CC(=O)O)C(C)C)C(=O)N[C@@H](CCCCN)C(=O)N[C@@H](CCC(=O)O)C(=O)N[C@@H](C)C(=O)N[C@@H](Cc1ccccc1)C(=O)N1CCC[C@H]1C(=O)N[C@@H](CC(=O)O)C(=O)N[C@@H](Cc1c[nH]c2ccccc12)C(=O)N[C@@H](C)C(=O)N[C@@H](CCCCN)C(=O)N[C@@H](C)C(=O)N[C@@H](C)C(=O)N[C@@H](Cc1ccc(O)cc1)C(=O)N[C@@H](CC(=O)O)C(=O)N[C@@H](CCCCN)C(=O)N[C@@H](C)C(=O)N[C@@H](C)C(=O)N[C@@H](CCC(=O)O)C(=O)N[C@@H](CCCCN)C(=O)N[C@@H](C)C(=O)N[C@@H](CCCCN)C(=O)N[C@@H](CCC(=O)O)C(=O)N[C@@H](C)C(=O)N[C@@H](C)C(=O)O		cynomolgus monkey female, plasma	intravenous infusion, 25 mg/kg every other day, day 27		AUC(0-last)	2470 µg·h/mL
CC[C@@H]1C[C@]1(NC(=O)[C@@H]1C[C@@]2(CN1C(=O)[C@@H](NC(=O)[C@@H](NC(=O)[C@@H]1CCCCN1C(C)C)C1CCCCC1)C(C)(C)C)C(C)(C)C21CCC1)C(=O)NS(=O)(=O)N1CCCC1	item: Nausea	human	oral, 50 mg, added: ritonavir 100 mg		subjects with adverse event	0%
CC[C@H](C)[C@H](NC(=O)[C@H](CCCCN)NC(=O)CNC(=O)[C@H](CC(C)C)NC(=O)[C@@H](NC(=O)[C@H](C)NC(=O)[C@H](CCCCN)NC(=O)CNC(=O)[C@H](C)NC(=O)CNC(=O)[C@H](CCCCN)NC(=O)[C@H](CCSC)NC(=O)[C@H](CCCCN)NC(=O)[C@@H](NC(=O)[C@H](Cc1c[nH]c2ccccc12)NC(=O)[C@H](CC(C)C)NC(=O)[C@H](CCCCN)NC(=O)[C@H](CCCCN)NC(=O)[C@H](CC(C)C)NC(=O)[C@@H](N)CC(C)C)[C@@H](C)O)C(C)C)C(=O)N[C@@H](CCCCN)C(=O)NCC(=O)N[C@@H](CC(C)C)C(=O)N[C@@H](CC(C)C)C(=O)O	acrylamide quenching	PBS, no lipid	2 µM, added: acrylamide		Stern-Volmer constant	16.5 ± 1.97 M⁻¹
CCCCCCCC(=O)OC[C@H](NC(=O)[C@H](CO)NC(=O)CN)C(=O)N[C@@H](Cc1ccccc1)C(=O)N[C@@H](CC(C)C)C(=O)N[C@@H](CO)C(=O)N1CCC[C@H]1C(=O)N[C@@H](CCC(=O)O)C(=O)N[C@@H](Cc1cnc[nH]1)C(=O)N[C@@H](CCC(N)=O)C(=O)N[C@@H](CCCNC(=N)N)C(=O)N[C@H](C(=O)N[C@@H](CCC(N)=O)C(=O)N[C@@H](CCC(N)=O)C(=O)N[C@@H](CCCNC(=N)N)C(=O)N[C@@H](CCCCN)C(=O)N[C@@H](CCC(=O)O)C(=O)N[C@@H](CO)C(=O)N[C@@H](CCCCN)C(=O)N[C@@H](CCCCN)C(=O)N1CCC[C@H]1C(=O)N1CCC[C@H]1C(=O)N[C@@H](C)C(=O)N[C@@H](CCCCN)C(=O)N[C@@H](CC(C)C)C(=O)N[C@@H](CCC(N)=O)C(=O)N1CCC[C@H]1C(=O)N[C@@H](CCCNC(=N)N)C(=O)O)C(C)C		human, both sexes, plasma	intravenous infusion, 5 µg/kg/h, 65 min infusion		clearance	5.47 ± 0.69 mL/min/kg
CC[C@H](C)CCCCC(=O)N[C@@H](CCN)C(=O)N[C@H](C(=O)N[C@@H](CCN)C(=O)N[C@H]1CCNC(=O)[C@H]([C@@H](C)O)NC(=O)[C@H](CCN)NC(=O)[C@H](CCN)NC(=O)[C@H](CC(C)C)NC(=O)[C@@H](Cc2ccccc2)NC(=O)[C@H](CCN)NC1=O)[C@@H](C)O	ELISA	male CD-1 mouse, urine	subcutaneous, 25 mg/kg, 4 doses every 8 h, 24 h urine collection, nephrotoxicity		urinary cystatin C excretion	1420 ng/24 h
CN(C)c1ccc(C(=O)NCCCCN2CCN(c3ccccc3O[11CH3])CC2)cc1		male Sprague Dawley rat, kidney	iv, 5 min	relative to: untreated	tissue uptake	2.69 ± 0.33 %ID/g
O=c1cc(-c2ccccc2)oc2c(Br)c(O)c(O)c(O)c12		C57BL/6 mouse, plasma	intravenous, 10 mg/kg, single dose		clearance	1.35 mL/min
CC(C)(CCCC/C=C/CCCCCC(C)(C)C(=O)O)C(=O)O		beagle dog, plasma	360 mg/kg, NOAEL dose, long-term GLP toxicity		AUC(0-24 h)	2470 µg·h/mL
COCCOCCOCCOc1ccc(/C=C/C2=[N+]3C(=C(c4cc(OC)cc(OC)c4)c4c(C)c(I)c(/C=C/c5ccc(OCCOCCOCCOC)cc5)n4[B-]3(F)F)C(C)=C2I)cc1		THF		relative to: methylene blue	fluorescence quantum yield	0.19
CSCC[C@H](NC(=O)CNC(=O)[C@H](CC(=O)O)NC(=O)[C@@H](NC(=O)[C@@H](NC(=O)[C@@H](NC(=O)CNC(=O)[C@H](CCC(N)=O)NC(=O)[C@H](CCSC)NC(=O)[C@H](CC(=O)O)NC(=O)[C@H](C)NC(=O)[C@H](C)NC(=O)[C@@H](NC(=O)[C@H](CO)NC(=O)[C@@H](N)CC(C)C)[C@@H](C)O)C(C)C)C(C)C)[C@@H](C)O)C(=O)N[C@@H](C)C(=O)N[C@@H](CO)C(=O)NCC(=O)N[C@@H](CC(C)C)C(=O)N[C@@H](CC(=O)O)C(=O)N[C@@H](CCCCN)C(=O)N[C@@H](CC(=O)O)C(=O)N[C@@H](Cc1ccc(O)cc1)C(=O)N[C@@H](CC(C)C)C(=O)N[C@@H](CCCCN)C(=O)N1CCC[C@H]1C(=O)N[C@@H](CC(=O)O)C(=O)N[C@@H](CC(=O)O)C(=O)O		human, serum	intravenous, 3.33 mg/kg, patients, infusion		Vd	0.468 L/kg
Cc1cc(Nc2nc(C[C@@]3(C(=O)O)CCN(Cc4cccc(Cl)c4F)[C@H](C)C3)cc(C)c2F)n[nH]1		Sprague-Dawley rat, plasma	oral, 0.5 mg/kg, single dose		bioavailability	81.1%
C/C=C/C=C/C/C=C/CCCCCCCc1cccc(O)c1O		female Kunming mice, tumour-bearing, heart	intravenous, 10 mg/kg, 0.083 h		tissue concentration	29500 ± 2930 ng/g
O=c1c(Br)c2oc3c(CN(Cc4ccccn4)Cc4ccccn4)c(O)ccc3nc-2c2ccccc12		aqueous buffer	pH 7.0, Zn2+-saturated		excitation maximum	535 nm
O=C(O)CC[C@H](NC(=O)O[C@@H](CCCCNC(=O)c1ccc([18F])cc1)C(=O)O)C(=O)O		mouse, PC-3 PIP/flu xenografts, bone	30 min		tissue uptake	2.05 ± 2.39 %ID/g
O=C([O-])C[N+]12CC(=O)[O][Re-2]1[O]P(=O)([O-])C2.[C-]#[O+].[C-]#[O+].[C-]#[O+] (centres unmarked)	HPLC	aqueous solution	1 d, pH 5, room temperature		isomer fraction at equilibrium	6%
CN[C@](C)(C[18F])C(=O)O		SCID mouse U87 xenograft	15 min post injection		tumour uptake	4.9 ± 1 %ID/g
N=C(N)NCc1ccc(C(=O)NCCCC[C@H](NC(=O)N[C@@H](CCC(=O)O)C(=O)O)C(=O)O)cc1[131I]		SCID mouse, PC-3 xenografts, spleen	1 h		tissue uptake	21.1 ± 4.2 %ID/g
CC[C@H](C)C(=O)N1CCC(NC(=O)Nc2ccc(OC(F)(F)F)c(F)c2)CC1		human, plasma	oral, 16 mg, single dose, healthy volunteers		AUC(0-inf)	6.96 µg·h/mL
CC(C)[C@H](NC(=O)CNC(=O)[C@H](CCC(N)=O)NC(=O)[C@H](C)N)C(=O)O		human	30 mg/kg single dose		subjects with mild adverse events	16.7%
CC[C@H](C)[C@H](NC(=O)[C@H](CCCNC(=N)N)NC(=O)[C@H](CCCCN)NC(=O)[C@H](CC(C)C)NC(=O)[C@H](CC(C)C)NC(=O)CNC(=O)[C@H](Cc1c[nH]cn1)NC(=O)[C@H](C)NC(=O)[C@@H](N)CC(=O)O)C(=O)N[C@@H](CCCCN)C(=O)N[C@H](C(=O)N[C@@H](CC(C)C)C(=O)N[C@@H](CC(C)C)C(N)=O)[C@@H](C)O	haemolysis	human red blood cells	1 h		HD10	64 µM
CN(C)C(CNC(=O)Nc1cc(C(F)(F)F)ccc1N1CCOCC1)c1ccncc1 (centres unmarked)		mouse, serum	intraperitoneal, 120 mg/kg single dose		serum iron	162 µg/dL
CCN(CC)CCOc1ccc(-c2nnn(Cc3ccc(OC)cc3)c2N)cc1		beagle dogs, plasma	120 min		stability	stable
COc1ccc(C)cc1NC(=O)OC1CC2CCCC(C1)N2Cc1ccc(CC[18F])cc1 (centres unmarked)		mouse, bone	2 h, tumour-bearing		tracer uptake	5.68 %ID/g
CC[C@H](C)[C@H](NC(=O)[C@H](CCC(=O)O)NC(=O)[C@H](CCC(=O)O)NC(=O)[C@H](Cc1ccccc1)NC(=O)[C@H](CC(=O)O)NC(=O)CNC(=O)[C@H](CC(N)=O)NC(=O)CNC(=O)CNC(=O)CNC(=O)CNC(=O)[C@@H]1CCCN1C(=O)[C@H](CCCNC(=N)N)NC(=O)[C@@H]1CCCN1C(=O)[C@H](N)Cc1ccccc1)C(=O)N1CCC[C@H]1C(=O)N[C@@H](CCC(=O)O)C(=O)N[C@@H](CCC(=O)O)C(=O)N[C@@H](Cc1ccc(O)cc1)C(=O)N[C@@H](CC(C)C)C(=O)O	LC-MS/MS	human plasma	4 h, 25 °C, stability, nominal 30.0 ng/mL		concentration	29.8 ± 0.5 ng/mL
O=c1c2ccccc2[se]n1CCCCn1[se]c2ccccc2c1=O		1% Soluplus in water	24 h, 25 °C, 10 mg/mL		solubility	42 ± 4 µg/mL (≈ 93.3 µM)
CCN(Cc1ccccc1)C(=O)CCc1nc(CN2CCN(C(=O)Cc3ccc(OC)c(OC)c3)CC2)no1		rat, plasma	intravenous, 1 mg/kg, 5 min		concentration	1030 ng/mL
COC(=O)C[C@](O)(CCCC(C)(C)OC(C)=O)C(=O)O[C@@H]1C(OC)=C[C@]23CCCN2CCc2cc4c(cc2[C@H]13)OCO4		CD1 mouse, bone marrow	subcutaneous, 1 mg/kg, 2 h		tissue concentration	55.6 ng/mL
C[C@@H](NC(=O)[C@@H](CCC(N)=O)NC(=O)[C@@H](C)NC(=O)[C@@H](CCCCN)NC(=O)[C@@H](CCC(N)=O)NC(=O)[C@@H](C)NC(=O)[C@@H](CCCCN)NC(=O)[C@@H](CCC(N)=O)NC(=O)[C@@H](C)NC(=O)[C@@H](CCC(N)=O)NC(=O)[C@@H](CCCCN)NC(=O)[C@@H](C)NC(=O)[C@@H](CCC(N)=O)NC(=O)[C@@H](CCCCN)NC(=O)[C@@H](C)NC(=O)[C@@H](CCC(N)=O)NC(=O)[C@@H](C)NC(=O)[C@@H](CCCCN)NC(=O)[C@@H](CCC(N)=O)NC(=O)[C@@H](C)NC(=O)[C@@H](CCCCN)NC(=O)[C@@H](CO)NC(=O)[C@@H](Cc1ccc(O)cc1)NC(=O)CNC(=O)CNC(=O)CN)C(=O)N[C@H](CCCCN)C(=O)N[C@H](CCC(N)=O)C(=O)N[C@H](C)C(=O)N[C@H](CCCCN)C(=O)N[C@H](CCC(N)=O)C(=O)O	helical structure, circular dichroism	PBS	0.05 mg/mL, pH 7.5		transition midpoint	~16 % TFE

Excerpt of the above:
Structure (SMILES)	assay	test system	conditions	how to read	measurement	value
CC(C)C[C@H](NC(=O)[C@H](CCCCN)NC(=O)[C@H](CCC(=O)O)NC(=O)[C@H](C)NC(=O)[C@@H](NC(=O)[C@H](CCCCN)NC(=O)[C@H](CC(=O)O)NC(=O)[C@H](Cc1ccc(O)cc1)NC(=O)[C@H](Cc1ccccc1)NC(=O)[C@H](C)NC(=O)[C@H](CCCCN)NC(=O)[C@H](CC(C)C)NC(=O)[C@H](Cc1c[nH]c2ccccc12)NC(=O)[C@@H](N)CC(=O)O)C(C)C)C(=O)N[C@@H](CCCCN)C(=O)N[C@@H](CCC(=O)O)C(=O)N[C@@H](C)C(=O)N[C@@H](Cc1ccccc1)C(=O)N1CCC[C@H]1C(=O)N[C@@H](CC(=O)O)C(=O)N[C@@H](Cc1c[nH]c2ccccc12)C(=O)N[C@@H](C)C(=O)N[C@@H](CCCCN)C(=O)N[C@@H](C)C(=O)N[C@@H](C)C(=O)N[C@@H](Cc1ccc(O)cc1)C(=O)N[C@@H](CC(=O)O)C(=O)N[C@@H](CCCCN)C(=O)N[C@@H](C)C(=O)N[C@@H](C)C(=O)N[C@@H](CCC(=O)O)C(=O)N[C@@H](CCCCN)C(=O)N[C@@H](C)C(=O)N[C@@H](CCCCN)C(=O)N[C@@H](CCC(=O)O)C(=O)N[C@@H](C)C(=O)N[C@@H](C)C(=O)O		cynomolgus monkey female, plasma	intravenous infusion, 25 mg/kg every other day, day 27		AUC(0-last)	2470 µg·h/mL
CC[C@H](C)[C@H](NC(=O)[C@H](CCCCN)NC(=O)CNC(=O)[C@H](CC(C)C)NC(=O)[C@@H](NC(=O)[C@H](C)NC(=O)[C@H](CCCCN)NC(=O)CNC(=O)[C@H](C)NC(=O)CNC(=O)[C@H](CCCCN)NC(=O)[C@H](CCSC)NC(=O)[C@H](CCCCN)NC(=O)[C@@H](NC(=O)[C@H](Cc1c[nH]c2ccccc12)NC(=O)[C@H](CC(C)C)NC(=O)[C@H](CCCCN)NC(=O)[C@H](CCCCN)NC(=O)[C@H](CC(C)C)NC(=O)[C@@H](N)CC(C)C)[C@@H](C)O)C(C)C)C(=O)N[C@@H](CCCCN)C(=O)NCC(=O)N[C@@H](CC(C)C)C(=O)N[C@@H](CC(C)C)C(=O)O	acrylamide quenching	PBS, no lipid	2 µM, added: acrylamide		Stern-Volmer constant	16.5 ± 1.97 M⁻¹
